Measurements pooled from the literature.
Lines come from different studies, so protocols differ. “And” joins repeats or separate records; there may be more than shown. ± gives the spread as reported.

Cc1ccc(S(=O)(=O)N2CC2C(=O)N(C)C)cc1 (stereo not shown)  tumour volume (mouse, Lewis lung carcinoma; intraperitoneal, 170 mg/kg, 16 doses, day 10): 527 mm3
Cc1ccc(C2=CC(C)(C)Oc3ccc(-c4ccc(-c5ccc(C(=O)O)cc5)[nH]4)cc32)cc1  testis weight (CD1 mouse, male; 20 mg/kg, 4 weeks after treatment, dosed for 2 weeks): 0.0908 g and 0.0995 g and 0.1 g and 0.0939 g and 0.105 g
CN1CC[C@@]23c4c5ccc(O)c4C[C@@H]2[C@H](O)C=C[C@@H]3[C@@H]1C5  antinociception (warm-water tail withdrawal; C57BL/6J mouse; i.c.v., 30 and 100 nmol, 55 °C, together with: naloxone 10 mg/kg i.p. pretreatment): inhibited
CCc1nnc(-c2c(OC)cc(-c3cnc4cc(-c5cnn(C)c5)ccn34)cc2OC)o1  osteoclast surface/bone surface (histomorphometry; male C57BL/6J mouse, tibia; oral gavage, 10 mg/kg once daily, 3 wk): 16.5 ± 1.42%
CC(C)C[C@@H]1NC(=O)[C@@H](Cc2c[nH]c3ccccc23)NC(=O)[C@H](CCCNC(=N)N)NC(=O)[C@@H](CCC(=O)O)NC(=O)[C@H](CCC(N)=O)NC(=O)[C@@H](CCC(=O)O)NC(=O)[C@H](CCCNC(=N)N)NC(=O)[C@@H](Cc2c[nH]c3ccccc23)NC1=O  cytokine level (Luminex, refers to: IL-17; LDLr-/- mice, Western diet, liver; dose not given, 4 weeks): 55 ± 16 pg/g tissue
COc1ccccc1-c1n[nH]c2nc(NC3CCN(C(=O)Cc4ccc(F)cc4F)CC3)ncc12  relative abundance (bead binding, competition bead pull-down, refers to: LINJ.35.1240; Leishmania donovani extract; 10 µM; relative to: vehicle): 1.17
CCN(Cc1ccccc1)C(=O)CCc1nc(CN2CCN(C(=O)Cc3ccc(OC)c(OC)c3)CC2)no1  foot slips (beam walking test; mouse CCI model; 20 mg/kg, unit not given; lower is better): 1 ± 0.26
COc1ccccc1-c1n[nH]c2nc(N[C@H]3CC[C@H](NS(=O)(=O)CC(C)C)CC3)ncc12  relative abundance (bead binding, competition bead pull-down, refers to: LMJF.35.4420; Leishmania donovani extract; 10 µM; relative to: vehicle): 0.96
O=C(O)c1ccc(-c2nc(-c3ccccc3Cl)c3sccn23)cc1  reticulocytes (C57BL/6 mice, 5-fluorouracil treated; dose not given, day 10; relative to: RBC): 19.9% and 11.1% and 17.2% and 22.1%
CC(C)[C@@H]1NC(=O)[C@@H]2CCCN2C(=O)[C@@H](C(C)C)NC(=O)[C@H]2CCCN2C(=O)[C@H](C(C)C)NC(=O)[C@@H]2CCCN2C(=O)[C@@H](C(C)C)NC(=O)[C@H]2CCCN2C(=O)[C@H](C(C)C)NC(=O)[C@@H]2CCCN2C(=O)[C@@H](C(C)C)NC(=O)[C@H]2CCCN2C1=O  transference number (sheep lipid bilayer; 10 µM, pH 7.4, 23 °C, together with: Tl cation): 0.94

For quick reference, copied from above:
CCc1nnc(-c2c(OC)cc(-c3cnc4cc(-c5cnn(C)c5)ccn34)cc2OC)o1  osteoclast surface/bone surface (histomorphometry; male C57BL/6J mouse, tibia; oral gavage, 10 mg/kg once daily, 3 wk): 16.5 ± 1.42%
